# Results gathered from unrelated publications.
# Each line is one published result; not all experiments were run side by side. Several values in a cell are separate wells, animals, samples, runs or records. ± marks the error that the study gave.
# Sequence of UniProt P04629 (whole entry, looked up): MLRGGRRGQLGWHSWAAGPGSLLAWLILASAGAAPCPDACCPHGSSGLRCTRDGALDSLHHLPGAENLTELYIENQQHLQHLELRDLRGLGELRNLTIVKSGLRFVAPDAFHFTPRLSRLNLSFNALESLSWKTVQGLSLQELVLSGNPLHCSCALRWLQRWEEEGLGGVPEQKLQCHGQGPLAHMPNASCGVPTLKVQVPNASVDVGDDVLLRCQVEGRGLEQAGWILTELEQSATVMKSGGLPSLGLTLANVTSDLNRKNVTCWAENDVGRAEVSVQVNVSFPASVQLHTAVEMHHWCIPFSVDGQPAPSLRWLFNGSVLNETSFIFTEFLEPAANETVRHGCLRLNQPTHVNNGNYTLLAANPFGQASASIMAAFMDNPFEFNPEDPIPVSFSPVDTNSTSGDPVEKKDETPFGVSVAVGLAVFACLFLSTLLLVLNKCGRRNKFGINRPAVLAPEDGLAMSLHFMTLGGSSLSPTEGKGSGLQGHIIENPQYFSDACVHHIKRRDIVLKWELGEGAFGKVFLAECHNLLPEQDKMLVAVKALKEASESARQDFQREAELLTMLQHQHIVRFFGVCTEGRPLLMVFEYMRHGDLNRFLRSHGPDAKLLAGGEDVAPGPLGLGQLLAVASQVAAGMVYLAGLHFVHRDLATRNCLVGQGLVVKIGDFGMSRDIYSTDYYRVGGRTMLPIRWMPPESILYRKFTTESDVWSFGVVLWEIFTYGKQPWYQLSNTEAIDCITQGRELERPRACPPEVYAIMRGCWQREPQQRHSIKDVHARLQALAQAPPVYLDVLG
SMILES,target or system,test,system,conditions,scale,measurement,result
CC[C@H](C)[C@@H]1NC(=O)[C@@H]2CCCN2C(=O)[C@H](CC(C)C)NC(=O)[C@H](CC(C)C)NC(=O)CNC(=O)[C@@H](NC(=O)[C@@H](NC(=O)[C@H](CC(=O)O)NC(=O)CNC(=O)[C@@H](NC(=O)[C@H](C)NC(=O)CNC(=O)[C@H](CCCCN)NC(=O)[C@H](CC(C)C)NC(=O)[C@H](CC(C)C)NC(=O)[C@H](CCCCN)NC(=O)CNC(=O)[C@@H](NC(=O)[C@@H](N)CC(C)C)C(C)C)C(C)C)C(C)C)CSSC[C@@H](C(=O)O)NC1=O,,"RNA-seq, measured: Rhog mRNA","mouse traumatic brain injury, frontal cortex and hippocampus",dose not given,relative to: TBI plus compound vs TBI,log2 fold change,-1.32
C[C@H]1O[C@@H](O[C@H]2CC[C@@]3(C)[C@@H](CC[C@]4(C)[C@@H]3C=C[C@]35OC[C@@]6(CCC(C)(C)C[C@H]63)[C@@H](O)C[C@]54C)[C@]2(C)CO)[C@H](O)[C@@H](O[C@@H]2O[C@H](CO)[C@@H](O)[C@H](O)[C@H]2O)[C@H]1O,,H&E staining,"hepatic SIRT1 knockdown mice, chronic-plus-binge ethanol, liver","dose not given, AAV8-TBG-shRNA, high dose",,steatosis area,22.2% and 27.3% and 27.8% and 22% and 18.7% and 21.9% and 25.7%
C[C@H]1CN(c2n[nH]c3nc(N[C@H]4CC[C@H](NS(=O)(=O)CCC(F)(F)F)CC4)ncc23)CCO1,"High affinity nerve growth factor receptor (NTRK1, Homo sapiens, UniProt P04629)","inhibitor, Kinobeads competition profiling",,0.032 µM,relative to: vehicle,relative abundance,1.01
CC[C@H](C)[C@H](NC(=O)[C@H](Cc1ccccc1)NC(=O)[C@H](CCC(=O)O)NC(=O)[C@H](CCCNC(=N)N)NC(=O)[C@H](C)NC(=O)[C@H](C)NC(=O)[C@H](CCC(N)=O)NC(=O)[C@H](CCC(=O)O)NC(=O)[C@H](CCC(=O)O)NC(=O)[C@H](CC(C)C)NC(=O)[C@H](Cc1ccc(O)cc1)NC(=O)[C@H](CO)NC(=O)[C@H](CO)NC(=O)[C@H](CCCCNc1c(NCCCCCN(O)C(=O)CCC(=O)NCCCCCN(O)C(=O)CCC(=O)NCCCCCN(O)C(C)=O)c(=O)c1=O)NC(=O)[C@H](CC(=O)O)NC(=O)[C@H](CO)NC(=O)[C@@H](NC(=O)[C@H](Cc1ccccc1)NC(=O)[C@@H](NC(=O)CNC(=O)[C@H](CCC(=O)O)NC(=O)[C@H](C)NC(=O)CCc1cnc[nH]1)[C@@H](C)O)[C@@H](C)O)C(=O)N[C@@H](C)C(=O)N[C@@H](Cc1c[nH]c2ccccc12)C(=O)N[C@@H](CC(C)C)C(=O)N[C@H](C(=O)N[C@@H](CCCCNc1c(NCCCCCN(O)C(=O)CCC(=O)NCCCCCN(O)C(=O)CCC(=O)NCCCCCN(O)C(C)=O)c(=O)c1=O)C(=O)NCC(=O)N[C@@H](CCCNC(=N)N)C(=O)N[C@@H](CCCCNC(=O)COCCOCCNC(=O)COCCOCCNC(=O)CC[C@H](NC(=O)CCCCCCCCCCCCCCCCC(=O)O)C(=O)O)C(=O)O)C(C)C,"Glucagon-like peptide 1 receptor (GLP1R, Homo sapiens, UniProt P43220)","cAMP reporter gene, agonist, CRE luciferase",BHK,"without Zr, 1% HSA",,EC50,3 nM
NNc1ccccc1,,"hydrazine ligation kinetics, absorbance",,"concentration not given, 20 s, added: 2-formylphenylboronic acid",,normalised absorbance,0.869
CCCCC1CNC2CCc3ccc(OC)cc3C12.Cl (racemic),,"memory retention, avoidance, foot shock, T-maze",SAMP8 mice,"intracerebroventricular, 0.01 µg, 7 days",relative to: vehicle,trials to criterion,decreased
CN1CCN(S(=O)(=O)c2cc([N+](=O)[O-])ccc2N(CCOS(C)(=O)=O)CCOS(C)(=O)=O)CC1,,,"NSG mice, T-ALL PDX sample F","intraperitoneal, 25 mg/kg, single mouse trial",,event-free survival,> 332 days
COc1cc(CCC[P+](c2ccccc2)(c2ccccc2)c2ccccc2)c(OC)c2c1OCO2.[I-],OVCAR-8,SRB,,,,GI50,-5.63 log M
FC(F)(F)c1ccc2c(c1)[C@@H]1CNC[C@H]2C1,,intermittent two-bottle choice,"Wistar rat, 20% ethanol drinking","subcutaneous, 10 mg/kg, 6 h",relative to: ethanol over total fluid intake,ethanol preference,29 ± 3%
CC[C@@H](C)[C@@H](NC(=O)[C@@H](Cc1ccc(O)cc1)NC(=O)[C@H]1CCCN1C(=O)[C@@H](CCCNC(=N)N)NC(=O)[C@H](N)Cc1c[nH]cn1)C(=O)N[C@H](C)C(=O)N[C@H](Cc1c[nH]cn1)C(=O)N[C@H](CCCNC(=N)N)C(=O)N[C@H](CCCCNC(=O)c1cccc(S(=O)(=O)F)c1)C(=O)N[C@H](Cc1ccc(O)cc1)C(=O)N[C@H](CO)C(=O)N[C@H](Cc1ccccc1)C(N)=O,,ex vivo flow cytometry,"B16 tumour-bearing mice, tumor",dose not given,,IFN-γ+ CD8+ T cell frequency,31.1% and 51.2% and 22.2% and 22.4% and 46.7%
CCCCC1(CCCC)CN(c2ccccc2)c2cc(SC)c(OCC(=O)N[C@@H](C(=O)NCC(=O)O)c3ccccc3)cc2S(=O)(=O)C1,,measured: HDL cholesterol,"human, serum","10 mg once daily, day 9",,serum HDL-C,49.8 mg/dL
COc1cc2c(Oc3ccc4[nH]c(C)cc4c3F)ccnc2cc1OCC1(N)CC1,,,paediatric recurrent refractory sarcoma,12 mg,,grade 1 or 2 Epistaxis,18.2%
